Measurements of several laboratories.
Lines come from different studies, so protocols differ. ± gives the spread as reported. Converted amounts (≈) assume the structure as drawn. Bridge positions count the residues as written; N and C are the ends. Ends that are not written are not given here. * marks the point of attachment.
Organism: Escherichia coli

CC(C)C[C@H](NC(=O)[C@H](C)NC(=O)[C@H](CC(C)C)NC(=O)[C@H](CCCCN)NC(=O)[C@H](CCCCN)NC(=O)[C@H](Cc1c[nH]c2ccccc12)NC(=O)[C@H](CC(C)C)NC(=O)[C@@H]1CCCN1C(=O)[C@H](C)NC(=O)[C@H](CC(C)C)NC(=O)[C@H](CCCCN)NC(=O)[C@H](CCCCN)NC(=O)[C@H](CC(C)C)NC(=O)[C@H](C)NC(=O)[C@H](CC(C)C)NC(=O)[C@H](C)NC(=O)[C@H](CC(C)C)NC(=O)[C@H](CCCCN)NC(=O)[C@@H](N)CCCCN)C(=O)N[C@@H](C)C(=O)N[C@@H](CC(C)C)C(=O)N[C@@H](CCCCN)C(=O)N[C@@H](CCCCN)C(=O)N[C@@H](C)C(N)=O
MIC50 (broth microdilution; TOP10; overnight, 37 °C): 0.68 ± 0.14 µM (≈ 1.81 µg/mL)

Glycyl-L-leucinamide
collaterally sensitive strains (60 lab-evolved antibiotic-resistant strains; ~0.8x wild-type MIC, 24 h, 30 °C): 82%

CC[C@H](C)[C@H](NC(=O)[C@H](Cc1ccc(O)cc1)NC(=O)[C@@H](NC(=O)[C@@H]1CCCN1C(=O)[C@H](CCCNC(=N)N)NC(=O)[C@H](CC(N)=O)NC(=O)[C@H](CC(N)=O)NC(=O)CN)C(C)C)C(=O)N1CCC[C@H]1C(=O)N[C@@H](CCC(N)=O)C(=O)N1CCC[C@H]1C(=O)N[C@@H](CCCNC(=N)N)C(=O)N1CCC[C@H]1C(=O)N1CCC[C@H]1C(=O)N[C@@H](Cc1c[nH]cn1)C(=O)N1CCC[C@H]1C(=O)N[C@@H](CCCNC(=N)N)C(=O)N[C@@H](CC(C)C)C(N)=O
MBC (DH5α; 24 h, 37 °C): 10 µM (≈ 21.1 µg/mL)

CC(C)C[C@H](NC(=O)[C@H](C)NC(=O)[C@H](CC(C)C)NC(=O)[C@H](CCCCN)NC(=O)[C@H](CCCCN)NC(=O)[C@H](Cc1c[nH]c2ccccc12)NC(=O)[C@H](CC(C)C)NC(=O)[C@H](CC(C)C)NC(=O)[C@H](C)NC(=O)[C@H](CC(C)C)NC(=O)[C@H](CCCCN)NC(=O)[C@H](CCCCN)NC(=O)[C@H](CC(C)C)NC(=O)[C@H](C)NC(=O)[C@H](CC(C)C)NC(=O)[C@H](C)NC(=O)[C@H](CC(C)C)NC(=O)[C@H](CCCCN)NC(=O)[C@@H](N)CCCCN)C(=O)N[C@@H](C)C(=O)N[C@@H](CC(C)C)C(=O)N[C@@H](CCCCN)C(=O)N[C@@H](CCCCN)C(=O)N[C@@H](C)C(N)=O
MIC50 (broth microdilution; TOP10; overnight, 37 °C): 1.47 ± 0.64 µM (≈ 3.93 µg/mL)

CC[C@H](C)[C@H](NC(=O)[C@H](CO)NC(=O)[C@H](CO)NC(=O)[C@H](Cc1ccccc1)NC(=O)CN)C(=O)N[C@@H](Cc1ccccc1)C(=O)N[C@@H](CCCCNC(=N)N)C(=O)NCC(=O)N[C@H](C(=O)N[C@@H](C)C(=O)N[C@@H](CCCCNC(=N)N)C(=O)N[C@@H](Cc1ccccc1)C(=O)N[C@@H](C)C(=O)N[C@@H](CO)C(=O)N[C@@H](CCCCNC(=N)N)C(=O)NCC(=O)N[C@@H](CC(C)C)C(=O)NCC(=O)N[C@@H](CCCCNC(=N)N)C(N)=O)C(C)C
MBC (ATCC 8739; pretreated trypsin 1 mg/mL): 16 µM (≈ 33.5 µg/mL)

ACPIFTKIQGTYRGKAKCK (disulfide 2-18 (inferred)) (disulfide)
antibacterial activity (K-12 sample A (CGSC sample B); MBC, 2 h, pH 7.4, 37 °C, together with: E. coli K-235 LPS at peptide:LPS 1:1 w/w): inhibited

C[n+]1cc(-c2ccc3ccccc3n2)cc2ccccc21
IC50 (lacZ reporter expression; VirF-independent lacZ control; 3 h, 37 °C, 6.2% DMSO, together with: 1 mM IPTG): > 100 µM

CC(C)C[C@H](NC(=O)[C@H](C)NC(=O)[C@H](CCCCN)NC(=O)[C@H](Cc1c[nH]c2ccccc12)NC(=O)[C@H](CC(C)C)NC(=O)[C@H](CC(C)C)NC(=O)[C@H](C)NC(=O)[C@H](CC(C)C)NC(=O)[C@H](CCCCN)NC(=O)[C@H](C)NC(=O)[C@@H]1CCCN1C(=O)[C@H](C)NC(=O)[C@H](CC(C)C)NC(=O)[C@H](CCCCN)NC(=O)[C@H](CC(C)C)NC(=O)[C@H](CCCCN)NC(=O)[C@@H](N)CCCCN)C(=O)N[C@@H](C)C(=O)N[C@@H](CC(C)C)C(=O)N[C@@H](CCCCN)C(=O)N[C@@H](CC(C)C)C(=O)N[C@@H](CCCCN)C(=O)N[C@@H](CCCCN)C(=O)N[C@@H](C)C(N)=O
MIC50 (broth microdilution; TOP10; overnight, 37 °C): 0.46 ± 0.11 µM (≈ 1.22 µg/mL)

Myristoyl-SCLPKEEQIGKSTRGRKCRRKK (disulfide 2-18 (inferred)) (N-myristoyl, disulfide; Myristoyl = CCCCCCCCCCCCCC(=O)*)
antibacterial activity (K-12 sample A (CGSC sample B); MBC, 2 h, pH 7.4, 37 °C, together with: E. coli K-235 LPS at peptide:LPS 1:5 w/w): inhibited

CC(C)C[C@H](NC(=O)[C@H](C)NC(=O)[C@H](CC(C)C)NC(=O)[C@H](Cc1c[nH]cn1)NC(=O)[C@H](CC(C)C)NC(=O)[C@@H](NC(=O)[C@@H](N)CO)[C@@H](C)O)C(=O)N[C@@H](CCCNC(=N)N)C(=O)N[C@@H](CC(C)C)C(=O)N[C@@H](CCCNC(=N)N)C(=O)NCC(=O)NCC(=O)O
MIC (DH5α; 37 °C, ≥90% viability decrease): > 100 µM

CC(C)C[C@H](NC(=O)[C@H](C)NC(=O)[C@H](CCCCN)NC(=O)[C@H](CC(C)C)NC(=O)[C@H](CC(C)C)NC(=O)[C@H](CCCCN)NC(=O)[C@H](CCCCN)NC(=O)[C@H](CC(C)C)NC(=O)[C@H](CC(C)C)NC(=O)[C@H](CCCCN)NC(=O)[C@H](CC(C)C)NC(=O)[C@H](CC(C)C)NC(=O)[C@@H](N)CCCCN)C(=O)NCC(N)=O
MIC (ATCC 25922, CAMHB; 18 h, 37 °C): 20 µM (≈ 31.6 µg/mL)

CC(C)C[C@H](NC(=O)[C@H](C)NC(=O)[C@H](CC(C)C)NC(=O)[C@H](CCCCN)NC(=O)[C@H](CC(C)C)NC(=O)[C@H](CCCCN)NC(=O)[C@@H](N)CCCCN)C(=O)N[C@@H](C)C(=O)N[C@@H](CCCCN)C(=O)N[C@@H](CC(C)C)C(=O)N[C@@H](C)C(=O)N1CCC[C@H]1C(=O)N[C@@H](CC(C)C)C(=O)N[C@@H](Cc1c[nH]c2ccccc12)C(=O)N[C@@H](CCCCN)C(=O)N[C@@H](C)C(=O)N[C@@H](CC(C)C)C(=O)N[C@@H](C)C(=O)N[C@@H](CC(C)C)C(=O)N[C@@H](CCCCN)C(=O)N[C@@H](CC(C)C)C(=O)N[C@@H](CCCCN)C(=O)N[C@@H](CCCCN)C(=O)N[C@@H](C)C(N)=O
MIC50 (broth microdilution; NCTC 9001; overnight, 37 °C): 0.48 ± 0.2 µM (≈ 1.28 µg/mL)

CC(C)C[C@H](NC(=O)[C@H](Cc1c[nH]c2ccccc12)NC(=O)[C@H](CCCNC(=N)N)NC(=O)[C@@H](N)Cc1ccccc1)C(=O)N[C@@H](CCCNC(=N)N)C(=O)N[C@@H](CCCCN)C(=O)N[C@@H](Cc1c[nH]c2ccccc12)C(=O)N[C@@H](Cc1ccccc1)C(=O)N[C@@H](CCCNC(=N)N)C(=O)N[C@@H](CCCNC(=N)N)C(=O)O
EC50 (bacterial killing, colony count; BL21; 1 h, pH 7, 37 °C): 2.9 µg/mL (≈ 1.87 µM)
